Results pooled from the literature.
Each numbered part is a random draw from the data of one study; scales do not carry over between parts. Values joined by “and” are separate records of one study, mostly repeats; a detail may differ.
UniProt P41145, sequence (whole entry, looked up): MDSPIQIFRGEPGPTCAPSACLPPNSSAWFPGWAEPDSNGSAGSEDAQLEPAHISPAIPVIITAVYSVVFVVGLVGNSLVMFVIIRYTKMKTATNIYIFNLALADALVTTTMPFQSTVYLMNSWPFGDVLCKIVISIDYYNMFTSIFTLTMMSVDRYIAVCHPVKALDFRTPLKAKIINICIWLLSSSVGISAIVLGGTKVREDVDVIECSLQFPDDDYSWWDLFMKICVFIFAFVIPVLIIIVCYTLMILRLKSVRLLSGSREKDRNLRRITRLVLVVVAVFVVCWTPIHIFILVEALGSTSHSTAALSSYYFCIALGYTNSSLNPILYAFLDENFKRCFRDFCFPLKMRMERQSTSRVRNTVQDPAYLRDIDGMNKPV
UniProt P23975, sequence (whole entry, looked up): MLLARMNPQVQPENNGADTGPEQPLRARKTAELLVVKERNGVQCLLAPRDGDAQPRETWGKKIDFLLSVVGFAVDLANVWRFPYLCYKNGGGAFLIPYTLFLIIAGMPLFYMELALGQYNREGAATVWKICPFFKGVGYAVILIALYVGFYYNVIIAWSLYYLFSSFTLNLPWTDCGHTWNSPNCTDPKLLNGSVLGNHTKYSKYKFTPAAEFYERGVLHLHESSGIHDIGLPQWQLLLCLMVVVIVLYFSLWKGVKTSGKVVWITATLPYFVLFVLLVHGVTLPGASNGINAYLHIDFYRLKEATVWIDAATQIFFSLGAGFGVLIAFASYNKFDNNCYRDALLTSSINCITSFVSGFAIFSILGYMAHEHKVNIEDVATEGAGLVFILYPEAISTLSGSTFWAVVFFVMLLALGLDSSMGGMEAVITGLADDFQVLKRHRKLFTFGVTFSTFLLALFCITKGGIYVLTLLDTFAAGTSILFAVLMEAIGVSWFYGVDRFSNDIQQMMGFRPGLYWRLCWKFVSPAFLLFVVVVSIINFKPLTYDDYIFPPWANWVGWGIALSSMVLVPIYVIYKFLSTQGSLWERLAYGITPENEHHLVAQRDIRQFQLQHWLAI
UniProt P35372, sequence (whole entry, looked up): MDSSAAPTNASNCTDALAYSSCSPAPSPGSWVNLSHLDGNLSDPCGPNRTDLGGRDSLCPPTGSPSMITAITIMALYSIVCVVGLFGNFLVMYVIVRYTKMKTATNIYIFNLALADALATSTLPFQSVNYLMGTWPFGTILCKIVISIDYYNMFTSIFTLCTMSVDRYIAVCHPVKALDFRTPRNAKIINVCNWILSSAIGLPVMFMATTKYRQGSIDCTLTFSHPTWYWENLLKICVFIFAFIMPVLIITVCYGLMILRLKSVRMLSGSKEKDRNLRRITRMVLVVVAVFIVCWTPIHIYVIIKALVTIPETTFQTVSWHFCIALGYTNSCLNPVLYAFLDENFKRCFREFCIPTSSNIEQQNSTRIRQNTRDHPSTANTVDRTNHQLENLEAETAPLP
UniProt Q01959, sequence (whole entry, looked up): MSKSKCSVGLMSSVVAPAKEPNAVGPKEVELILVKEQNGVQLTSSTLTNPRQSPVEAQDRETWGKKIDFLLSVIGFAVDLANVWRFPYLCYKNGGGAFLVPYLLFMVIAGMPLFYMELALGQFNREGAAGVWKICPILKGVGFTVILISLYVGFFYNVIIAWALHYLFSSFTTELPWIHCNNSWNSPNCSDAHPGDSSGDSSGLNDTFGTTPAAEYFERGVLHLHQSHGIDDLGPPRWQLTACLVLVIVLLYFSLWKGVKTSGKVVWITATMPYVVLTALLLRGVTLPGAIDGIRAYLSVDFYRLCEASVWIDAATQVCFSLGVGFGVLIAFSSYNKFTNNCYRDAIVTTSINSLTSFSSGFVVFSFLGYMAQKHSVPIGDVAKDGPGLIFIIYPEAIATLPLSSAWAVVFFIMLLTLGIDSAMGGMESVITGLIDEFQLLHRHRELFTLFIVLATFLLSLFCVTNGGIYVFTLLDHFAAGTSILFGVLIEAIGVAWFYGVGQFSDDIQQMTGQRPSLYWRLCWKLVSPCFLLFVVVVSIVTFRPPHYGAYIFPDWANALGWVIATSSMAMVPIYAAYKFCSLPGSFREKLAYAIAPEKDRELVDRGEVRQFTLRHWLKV

Series 1
Target: Calcium/calmodulin-dependent protein kinase type II subunit alpha (CAMK2A, Homo sapiens, UniProt Q9UQM7)
UniProt Q9UQM7, sequence (whole entry, looked up): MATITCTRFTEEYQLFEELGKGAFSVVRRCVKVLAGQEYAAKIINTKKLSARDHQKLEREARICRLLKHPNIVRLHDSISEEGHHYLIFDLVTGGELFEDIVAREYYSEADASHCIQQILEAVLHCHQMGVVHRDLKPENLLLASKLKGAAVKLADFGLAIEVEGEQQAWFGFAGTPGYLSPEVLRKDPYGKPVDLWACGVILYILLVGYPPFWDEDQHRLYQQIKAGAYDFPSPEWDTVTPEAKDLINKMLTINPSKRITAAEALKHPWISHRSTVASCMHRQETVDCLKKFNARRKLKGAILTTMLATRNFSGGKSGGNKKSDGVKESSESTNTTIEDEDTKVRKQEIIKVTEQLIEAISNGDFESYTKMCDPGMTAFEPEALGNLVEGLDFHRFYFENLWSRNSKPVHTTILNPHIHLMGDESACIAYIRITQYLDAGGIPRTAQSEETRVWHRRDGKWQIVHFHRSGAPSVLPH
Effect on: enzyme activity
Action: inhibitor
Concentration: 10 µM
Endpoint: inhibition
Clc1ccc(C(OCCN2CCCCC2)c2ccccc2)cc1 (stereo not drawn): -6%
CC(C)c1cccc(C(C)C)c1O: -9%
CC(C)OC(=O)[C@H](C)N[P@](=O)(CO[C@H](C)Cn1cnc2c(N)ncnc21)Oc1ccccc1: 0.06% and -0.08% and 0%
O=C(Nc1ccccc1)Nc1ccnc(Cl)c1: 4%
C=C(C)[C@@H]1[C@H]2OC(=O)[C@@H]1[C@]1(O)C[C@H]3O[C@]34C(=O)O[C@H]2[C@]14C: 69%
CC(C)C1=CC(=O)[C@@](C)([C@H]2[C@H](O)C[C@@]3(C)[C@@H]4CC=C5[C@@H](CC[C@@H](O[C@@H]6OC[C@@H](O)[C@H](O)[C@H]6O[C@@H]6O[C@@H](C)[C@H](O)[C@@H](O)[C@H]6O)C5(C)C)[C@]4(C)C(=O)C[C@]23C)O1: -4%
O=C1c2ccccc2C(=O)c2ccccc21: -14%
N#CCCN: -42%
c1ccc2c(c1)Sc1ccccc1N2CC1CN2CCC1CC2 (stereo not drawn): 5%
CO[C@H]1[C@@H](O)[C@H](O[C@@H]2[C@@H](C)O[C@@H](O[C@H]3CC[C@@]4(C)[C@@H](CC[C@@]56O[C@@]57CC[C@@H](C(C)=O)[C@@]7(C)[C@H](OC(C)=O)[C@@H](OC(=O)c5ccccc5)[C@H]46)C3)C[C@H]2OC)O[C@H](C)[C@H]1O: -66%
O=C(C[C@H]1NCCC[C@@H]1O)Cn1cnc2ccccc2c1=O: -37%

Series 2
Target: DNA polymerase theta, ATPase domain (POLQ, Homo sapiens, UniProt O75417)
UniProt O75417, sequence (whole entry, unmodified, looked up): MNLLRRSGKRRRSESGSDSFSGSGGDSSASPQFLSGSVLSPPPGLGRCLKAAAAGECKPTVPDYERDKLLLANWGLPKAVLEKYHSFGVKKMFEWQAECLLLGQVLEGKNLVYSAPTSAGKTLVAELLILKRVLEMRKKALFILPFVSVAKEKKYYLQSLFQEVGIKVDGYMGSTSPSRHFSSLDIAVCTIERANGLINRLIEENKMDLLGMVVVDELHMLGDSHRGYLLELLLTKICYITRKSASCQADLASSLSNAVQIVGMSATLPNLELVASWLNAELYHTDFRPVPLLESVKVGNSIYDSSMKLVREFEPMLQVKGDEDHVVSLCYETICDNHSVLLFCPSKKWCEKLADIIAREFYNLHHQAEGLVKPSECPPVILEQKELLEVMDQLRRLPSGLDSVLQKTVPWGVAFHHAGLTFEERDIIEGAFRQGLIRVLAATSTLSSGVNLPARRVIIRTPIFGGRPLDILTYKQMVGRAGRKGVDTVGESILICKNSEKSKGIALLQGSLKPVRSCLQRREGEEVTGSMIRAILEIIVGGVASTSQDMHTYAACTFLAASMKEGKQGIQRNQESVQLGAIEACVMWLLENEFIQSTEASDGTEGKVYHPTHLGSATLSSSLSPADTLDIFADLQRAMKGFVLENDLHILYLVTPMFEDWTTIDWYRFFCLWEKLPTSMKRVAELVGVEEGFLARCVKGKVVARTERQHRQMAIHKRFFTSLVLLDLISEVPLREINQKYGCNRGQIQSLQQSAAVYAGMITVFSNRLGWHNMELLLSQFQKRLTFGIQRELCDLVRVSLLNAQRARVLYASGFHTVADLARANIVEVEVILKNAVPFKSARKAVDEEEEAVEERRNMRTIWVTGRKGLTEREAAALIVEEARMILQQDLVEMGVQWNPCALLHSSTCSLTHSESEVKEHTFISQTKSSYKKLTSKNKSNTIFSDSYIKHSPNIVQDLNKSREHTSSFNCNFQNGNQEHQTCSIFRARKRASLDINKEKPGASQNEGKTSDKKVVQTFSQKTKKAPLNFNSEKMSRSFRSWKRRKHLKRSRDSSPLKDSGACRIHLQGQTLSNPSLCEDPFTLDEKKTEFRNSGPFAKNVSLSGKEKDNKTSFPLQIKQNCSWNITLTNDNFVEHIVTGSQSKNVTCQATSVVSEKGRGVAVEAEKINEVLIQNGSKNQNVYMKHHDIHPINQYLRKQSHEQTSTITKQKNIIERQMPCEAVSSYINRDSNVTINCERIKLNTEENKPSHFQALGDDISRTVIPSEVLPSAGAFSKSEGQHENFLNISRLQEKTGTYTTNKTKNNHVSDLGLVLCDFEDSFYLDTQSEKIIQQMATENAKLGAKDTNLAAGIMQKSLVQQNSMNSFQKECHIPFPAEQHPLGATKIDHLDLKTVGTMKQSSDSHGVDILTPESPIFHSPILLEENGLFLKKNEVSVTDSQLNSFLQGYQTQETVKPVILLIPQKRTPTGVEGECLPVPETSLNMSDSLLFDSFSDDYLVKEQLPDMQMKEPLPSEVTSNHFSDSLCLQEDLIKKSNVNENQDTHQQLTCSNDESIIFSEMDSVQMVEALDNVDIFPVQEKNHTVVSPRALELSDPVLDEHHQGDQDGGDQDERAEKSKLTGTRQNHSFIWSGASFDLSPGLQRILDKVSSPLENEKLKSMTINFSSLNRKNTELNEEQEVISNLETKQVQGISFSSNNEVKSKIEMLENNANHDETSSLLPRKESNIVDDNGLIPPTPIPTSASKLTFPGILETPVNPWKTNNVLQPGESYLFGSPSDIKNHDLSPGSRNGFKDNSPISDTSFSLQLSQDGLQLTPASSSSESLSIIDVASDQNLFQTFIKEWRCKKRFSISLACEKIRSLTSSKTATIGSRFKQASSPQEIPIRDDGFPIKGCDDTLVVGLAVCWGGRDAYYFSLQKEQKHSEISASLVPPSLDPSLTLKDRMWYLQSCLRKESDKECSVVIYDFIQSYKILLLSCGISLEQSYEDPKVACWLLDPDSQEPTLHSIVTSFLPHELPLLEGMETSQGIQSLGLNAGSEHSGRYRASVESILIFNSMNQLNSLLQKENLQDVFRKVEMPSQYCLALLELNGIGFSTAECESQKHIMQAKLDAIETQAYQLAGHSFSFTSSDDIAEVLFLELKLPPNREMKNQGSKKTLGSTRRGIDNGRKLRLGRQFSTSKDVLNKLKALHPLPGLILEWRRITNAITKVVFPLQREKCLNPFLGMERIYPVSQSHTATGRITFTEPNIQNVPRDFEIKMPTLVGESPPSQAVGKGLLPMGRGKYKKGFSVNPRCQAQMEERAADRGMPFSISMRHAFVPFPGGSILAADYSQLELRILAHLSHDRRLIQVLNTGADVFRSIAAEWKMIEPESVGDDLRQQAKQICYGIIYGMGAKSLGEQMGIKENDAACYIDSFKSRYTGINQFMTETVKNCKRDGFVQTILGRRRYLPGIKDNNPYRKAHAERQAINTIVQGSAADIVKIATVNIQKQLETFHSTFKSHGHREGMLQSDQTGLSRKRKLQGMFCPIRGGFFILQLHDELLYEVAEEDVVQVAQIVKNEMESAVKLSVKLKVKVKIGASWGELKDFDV
Effect on: enzyme activity
Action: inhibitor
Concentration: 77 µM
Reference: untreated
Endpoint: remaining activity
N[C@]1(C(=O)O)CC[C@H](C(=O)O)C1: 111%
CC(=O)O[C@@]12CO[C@@H]1C[C@H](O)[C@@]1(C)C(=O)[C@H](O)C3=C(C)[C@@H](O)C[C@@](O)([C@@H](OC(=O)c4ccccc4)[C@H]21)C3(C)C: 97%
C[C@H]1CC[C@]2(NC1)O[C@H]1C[C@H]3[C@@H]4CC[C@H]5C[C@@H](O[C@@H]6O[C@H](CO)[C@H](O[C@@H]7O[C@H](CO)[C@@H](O)[C@H](O[C@@H]8OC[C@@H](O)[C@H](O)[C@H]8O)[C@H]7O[C@@H]7O[C@H](CO)[C@@H](O)[C@H](O)[C@H]7O)[C@H](O)[C@H]6O)CC[C@]5(C)[C@H]4CC[C@]3(C)[C@H]1[C@@H]2C: 98%
C[C@]12CCC(=O)C=C1CC[C@@H]1[C@@H]2C(=O)C[C@]2(C)C(=O)CC[C@@H]12: 109%
CC[C@@H](CO)NC(=O)[C@@H]1C=C2c3cccc4c3c(cn4C)C[C@H]2N(C)C1: 99.7%
CCCCCCCCCCCCCC(=O)O[C@@H]1[C@@H](C)[C@@]2(O)[C@@H](C=C(CO)C[C@]3(O)C(=O)C(C)=C[C@@H]23)[C@@H]2C(C)(C)[C@]12OC(C)=O: 90.8%
O=[N+]([O-])c1ncc[nH]1: 95.9%
C[C@]12CC[C@H]3[C@@H](CCC4=CC(=O)CC[C@@H]43)[C@@H]1CC[C@@H]2O: 101%
O=C1C=CC(=O)C=C1: 99.5%
CCN1C[C@]2(COC)CC[C@H](O)[C@]34C1C(C[C@H]23)[C@@]1(O)C[C@H](OC)[C@H]2C[C@@H]4[C@@H]1[C@H]2OC(C)=O: 100%

Series 3
Compound: O=C(O)[C@@H]1[C@@H](Cn2nnc3ccccc3c2=O)CC[C@H]1C(=O)c1ccc(OCCC2CCOCC2)cc1
Effect on: binding
Technique: radioligand binding
Concentration: 10 µM
Endpoint: inhibition
SLC6A2 (Homo sapiens, UniProt P23975): -10.1%
SLC6A4 (Homo sapiens, UniProt P31645): 10.2%
CHRM3 (Homo sapiens, UniProt P20309): 5.09%
OPRK1 (Homo sapiens, UniProt P41145): 8.5%
OPRM1 (Homo sapiens, UniProt P35372): -10.1%
SLC6A3 (Homo sapiens, UniProt Q01959): -23.5%
DRD5 (Homo sapiens, UniProt P21918): 19.6%

Single results of other studies
Cell line: mouse MPNST tumor cells
Technique: high-content nuclear imaging
Refers to: cell number
Concentration: 10 µM
Time: 12 h
Setting: mean of 2 replicates
Reference: plate mean
Reading: higher = more cells
CC(C)(O)[C@H]1O[C@H]2CC[C@@]3(C)[C@@](O)(CC[C@H]4Cc5c([nH]c6ccccc56)[C@@]43C)C2=CC1=O — nuclei count: 3.79 z-score
Oc1ccc2c3c1O[C@H]1c4[nH]c5c(c4C[C@@]4(O)[C@@H](C2)N(CC2CC2)CC[C@]314)C[C@@]1(O)[C@H]2Cc3ccc(O)c4c3[C@@]1(CCN2CC1CC1)[C@H]5O4 — nuclei count: 0.915 z-score

For quick reference, copied from above (series 2):
N[C@]1(C(=O)O)CC[C@H](C(=O)O)C1: 111%
O=[N+]([O-])c1ncc[nH]1: 95.9%
CCN1C[C@]2(COC)CC[C@H](O)[C@]34C1C(C[C@H]23)[C@@]1(O)C[C@H](OC)[C@H]2C[C@@H]4[C@@H]1[C@H]2OC(C)=O: 100%
CC(=O)O[C@@]12CO[C@@H]1C[C@H](O)[C@@]1(C)C(=O)[C@H](O)C3=C(C)[C@@H](O)C[C@@](O)([C@@H](OC(=O)c4ccccc4)[C@H]21)C3(C)C: 97%
C[C@H]1CC[C@]2(NC1)O[C@H]1C[C@H]3[C@@H]4CC[C@H]5C[C@@H](O[C@@H]6O[C@H](CO)[C@H](O[C@@H]7O[C@H](CO)[C@@H](O)[C@H](O[C@@H]8OC[C@@H](O)[C@H](O)[C@H]8O)[C@H]7O[C@@H]7O[C@H](CO)[C@@H](O)[C@H](O)[C@H]7O)[C@H](O)[C@H]6O)CC[C@]5(C)[C@H]4CC[C@]3(C)[C@H]1[C@@H]2C: 98%
